Experimental data collected from several papers.
A part holds a random share of what one study measured.
Sequence of UniProt P53779 (whole entry, looked up): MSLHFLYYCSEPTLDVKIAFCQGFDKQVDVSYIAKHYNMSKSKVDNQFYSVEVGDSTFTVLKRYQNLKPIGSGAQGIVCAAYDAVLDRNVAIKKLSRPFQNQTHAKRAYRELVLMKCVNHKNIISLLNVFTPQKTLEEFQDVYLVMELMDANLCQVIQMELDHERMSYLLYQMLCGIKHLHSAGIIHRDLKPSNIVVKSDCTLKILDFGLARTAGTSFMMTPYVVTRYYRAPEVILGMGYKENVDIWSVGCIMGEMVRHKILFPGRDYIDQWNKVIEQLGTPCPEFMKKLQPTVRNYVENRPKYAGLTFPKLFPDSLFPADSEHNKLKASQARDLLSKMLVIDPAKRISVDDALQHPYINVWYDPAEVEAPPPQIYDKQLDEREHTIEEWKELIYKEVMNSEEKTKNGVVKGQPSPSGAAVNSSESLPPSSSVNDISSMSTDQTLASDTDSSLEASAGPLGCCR
Sequence of UniProt Q9NQU5 (whole entry, looked up): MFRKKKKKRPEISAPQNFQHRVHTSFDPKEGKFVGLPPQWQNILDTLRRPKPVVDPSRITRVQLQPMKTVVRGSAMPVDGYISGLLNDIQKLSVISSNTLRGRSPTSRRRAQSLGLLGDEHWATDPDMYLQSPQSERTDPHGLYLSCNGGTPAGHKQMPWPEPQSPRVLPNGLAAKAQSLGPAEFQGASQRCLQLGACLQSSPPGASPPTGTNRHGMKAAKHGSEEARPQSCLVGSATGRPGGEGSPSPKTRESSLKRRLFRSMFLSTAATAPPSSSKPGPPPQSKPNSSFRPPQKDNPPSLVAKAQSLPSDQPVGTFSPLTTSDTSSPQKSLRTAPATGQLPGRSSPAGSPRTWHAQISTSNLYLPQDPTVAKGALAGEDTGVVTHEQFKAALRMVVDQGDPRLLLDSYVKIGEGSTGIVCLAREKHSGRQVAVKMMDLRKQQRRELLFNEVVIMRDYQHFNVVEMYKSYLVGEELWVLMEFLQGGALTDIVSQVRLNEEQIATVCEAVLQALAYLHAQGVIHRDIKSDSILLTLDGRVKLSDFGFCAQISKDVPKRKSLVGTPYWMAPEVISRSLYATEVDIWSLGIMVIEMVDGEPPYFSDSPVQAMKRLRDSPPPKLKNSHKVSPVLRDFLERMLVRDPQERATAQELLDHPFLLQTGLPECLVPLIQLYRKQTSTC
Sequence of UniProt Q9H093 (whole entry, looked up): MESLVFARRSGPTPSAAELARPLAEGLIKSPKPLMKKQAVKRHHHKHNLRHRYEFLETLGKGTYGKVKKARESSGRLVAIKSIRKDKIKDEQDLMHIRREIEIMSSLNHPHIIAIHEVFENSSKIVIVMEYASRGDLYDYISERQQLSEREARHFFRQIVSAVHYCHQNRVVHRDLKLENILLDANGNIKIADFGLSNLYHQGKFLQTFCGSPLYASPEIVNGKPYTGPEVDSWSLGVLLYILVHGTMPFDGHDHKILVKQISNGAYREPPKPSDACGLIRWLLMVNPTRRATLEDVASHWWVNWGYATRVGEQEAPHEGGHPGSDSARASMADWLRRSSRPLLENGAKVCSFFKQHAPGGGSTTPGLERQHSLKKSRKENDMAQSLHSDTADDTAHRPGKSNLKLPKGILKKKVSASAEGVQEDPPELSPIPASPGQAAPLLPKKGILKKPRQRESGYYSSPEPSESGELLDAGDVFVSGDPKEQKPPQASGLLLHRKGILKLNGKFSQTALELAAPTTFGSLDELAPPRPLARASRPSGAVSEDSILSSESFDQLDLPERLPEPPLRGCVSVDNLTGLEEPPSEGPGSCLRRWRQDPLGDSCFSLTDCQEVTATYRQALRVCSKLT
Sequence of UniProt P30530 (whole entry, looked up): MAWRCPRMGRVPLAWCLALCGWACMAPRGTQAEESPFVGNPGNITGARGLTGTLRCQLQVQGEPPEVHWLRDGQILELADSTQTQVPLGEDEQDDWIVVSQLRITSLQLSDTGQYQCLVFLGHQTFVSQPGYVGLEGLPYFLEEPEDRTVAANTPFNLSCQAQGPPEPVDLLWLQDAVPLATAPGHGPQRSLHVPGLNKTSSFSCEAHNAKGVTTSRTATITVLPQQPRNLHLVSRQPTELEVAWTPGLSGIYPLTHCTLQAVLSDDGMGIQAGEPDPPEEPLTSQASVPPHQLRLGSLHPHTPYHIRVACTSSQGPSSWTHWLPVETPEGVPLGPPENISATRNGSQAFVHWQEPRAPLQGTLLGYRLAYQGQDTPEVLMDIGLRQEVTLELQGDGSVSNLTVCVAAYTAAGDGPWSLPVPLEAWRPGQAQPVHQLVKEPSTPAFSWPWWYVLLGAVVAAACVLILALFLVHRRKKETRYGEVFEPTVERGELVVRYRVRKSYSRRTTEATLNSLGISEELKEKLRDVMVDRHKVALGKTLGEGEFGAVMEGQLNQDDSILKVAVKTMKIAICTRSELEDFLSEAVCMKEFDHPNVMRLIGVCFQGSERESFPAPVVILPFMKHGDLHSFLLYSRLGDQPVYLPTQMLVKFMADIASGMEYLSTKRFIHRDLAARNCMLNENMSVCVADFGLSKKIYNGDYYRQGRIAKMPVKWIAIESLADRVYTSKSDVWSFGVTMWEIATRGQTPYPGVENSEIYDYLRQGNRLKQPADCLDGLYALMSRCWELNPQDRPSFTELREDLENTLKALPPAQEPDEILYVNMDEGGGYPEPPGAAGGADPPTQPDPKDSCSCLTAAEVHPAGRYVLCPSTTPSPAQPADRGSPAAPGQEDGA
Sequence of UniProt P80192 (whole entry, looked up): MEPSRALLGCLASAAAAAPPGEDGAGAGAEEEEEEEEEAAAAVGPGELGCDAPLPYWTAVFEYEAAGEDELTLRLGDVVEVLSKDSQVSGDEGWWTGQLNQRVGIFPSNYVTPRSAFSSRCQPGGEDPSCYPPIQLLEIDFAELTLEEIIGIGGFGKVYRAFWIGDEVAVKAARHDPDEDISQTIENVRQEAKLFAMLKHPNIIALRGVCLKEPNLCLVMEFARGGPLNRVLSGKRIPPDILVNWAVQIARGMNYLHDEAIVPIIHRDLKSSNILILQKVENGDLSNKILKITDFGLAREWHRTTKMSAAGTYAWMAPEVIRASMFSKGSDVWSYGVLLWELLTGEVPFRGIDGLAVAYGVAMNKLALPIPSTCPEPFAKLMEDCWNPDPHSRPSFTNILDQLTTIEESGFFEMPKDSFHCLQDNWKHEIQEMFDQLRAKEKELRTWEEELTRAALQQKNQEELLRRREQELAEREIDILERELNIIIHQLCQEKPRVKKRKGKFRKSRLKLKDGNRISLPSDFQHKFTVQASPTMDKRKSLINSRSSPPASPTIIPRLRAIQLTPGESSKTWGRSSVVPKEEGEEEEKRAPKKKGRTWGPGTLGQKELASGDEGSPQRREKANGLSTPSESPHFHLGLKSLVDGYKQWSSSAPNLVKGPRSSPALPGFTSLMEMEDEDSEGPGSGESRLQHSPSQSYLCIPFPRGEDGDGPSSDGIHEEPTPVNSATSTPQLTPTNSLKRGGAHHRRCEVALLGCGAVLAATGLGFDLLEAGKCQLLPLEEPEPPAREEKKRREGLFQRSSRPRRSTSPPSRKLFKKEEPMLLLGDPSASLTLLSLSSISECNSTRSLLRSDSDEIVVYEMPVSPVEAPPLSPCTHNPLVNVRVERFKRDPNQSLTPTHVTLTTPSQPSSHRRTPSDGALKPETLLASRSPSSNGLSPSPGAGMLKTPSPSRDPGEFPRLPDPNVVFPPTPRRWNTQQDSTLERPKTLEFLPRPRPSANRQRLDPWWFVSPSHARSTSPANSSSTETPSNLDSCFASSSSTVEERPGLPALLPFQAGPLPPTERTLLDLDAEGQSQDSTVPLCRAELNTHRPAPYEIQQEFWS

Sample 1 — cell line: mouse MPNST tumor cells; technique: high-content nuclear imaging; measured: cell number; tested at: 10 µM; time: 12 h; setting: mean of 2 replicates; reference: plate mean; reading: higher = more cells
The nuclei count of `Nc1nc(-c2nn(Cc3ccccc3F)c3ncccc23)ncc1C1CC1` is reported as -2.91 z-score.
With `CCCC(=O)Nc1cccc(NC(=O)c2ccccc2Br)c1` the nuclei count was 1.06 z-score.
`COc1ccc(-c2nnc(Nc3nc4c(OC)cccc4s3)o2)cc1` has a nuclei count of -0.92 z-score.
`CCOC(=O)Nc1ccc(NCc2ccc(F)cc2)nc1N` gave a nuclei count of 1.4 z-score.
`COc1ccc(CN(CCN(C)C)c2ccccn2)cc1` gave a nuclei count of 1.13 z-score.
For `CC[C@@]1(O)C(=O)OCc2c1cc1n(c2=O)Cc2cc3c(CN(C)C)c(O)ccc3nc2-1`, the nuclei count was -1.77 z-score.
For `CCCNCC(O)COc1ccccc1C(=O)CCc1ccccc1` (centres unmarked), the nuclei count was 2.17 z-score.
`CCC(F)(F)c1cc(N2CCC(S(C)(=O)=O)CC2)nc2sc(C(N)=O)c(N)c12` has a nuclei count of -0.898 z-score.
With `Cc1cccn2c(=O)c(-c3nnn[nH]3)cnc12` the nuclei count was 0.127 z-score.
The nuclei count of `COc1ccc(S(=O)(=O)Nc2nc(-c3cccc([N+](=O)[O-])c3)cs2)cc1OC` is reported as 0.501 z-score.
For `CC(C)c1cc(N2CC[C@@H](N)C2)nc(N)n1`, the nuclei count was 3.29 z-score.
The nuclei count of `NC1CCN(c2c(F)cc3c(=O)c(C(=O)O)cn(C4CC4)c3c2Cl)C1` (centres unmarked) is reported as 1.36 z-score.
`C=CCNc1ncnc2ccc(Br)cc12` has a nuclei count of 0.692 z-score.
The nuclei count of `N[C@H](CNc1nc(-c2ccncc2)nc2sc3c(c12)CCCC3)Cc1ccccc1` is reported as -6.36 z-score.
`CC(=O)N1CCN(c2ccc(OCC3COC(Cn4ccnc4)(c4ccc(Cl)cc4Cl)O3)cc2)CC1` (centres unmarked) gave a nuclei count of 0.818 z-score.
For `O=[N+]([O-])c1ccc(CN2CCOCCOCCN(Cc3ccc([N+](=O)[O-])cc3)CCOCC2)cc1`, the nuclei count was 0.79 z-score.

Sample 2 — mode: antagonist
Target: Beta-1 adrenergic receptor (ADRB1, Homo sapiens, UniProt P08588)
Sequence of UniProt P08588 (whole entry, looked up): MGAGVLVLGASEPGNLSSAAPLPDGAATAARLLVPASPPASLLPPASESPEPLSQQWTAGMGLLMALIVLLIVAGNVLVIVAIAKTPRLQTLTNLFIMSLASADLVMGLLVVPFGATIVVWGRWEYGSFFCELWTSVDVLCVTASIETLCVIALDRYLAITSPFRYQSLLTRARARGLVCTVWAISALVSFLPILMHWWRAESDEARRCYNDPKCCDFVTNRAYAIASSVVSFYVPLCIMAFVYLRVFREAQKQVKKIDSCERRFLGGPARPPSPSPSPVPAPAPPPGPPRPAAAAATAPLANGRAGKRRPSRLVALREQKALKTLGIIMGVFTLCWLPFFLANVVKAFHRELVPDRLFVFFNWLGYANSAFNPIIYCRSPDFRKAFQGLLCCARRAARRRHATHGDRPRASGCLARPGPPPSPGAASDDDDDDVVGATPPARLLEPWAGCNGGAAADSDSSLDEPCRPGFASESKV
`Cc1cc2ncn(CC(O)COc3ccc4ccccc4c3)c2cc1C` (centres unmarked) gave an IC50 of no less than 100 µM.
`COc1ncc(-c2nccc3c(=O)cc(N(C)c4ccccc4)oc23)cn1` has an IC50 of no less than 100 µM.
The IC50 of `Fc1ccc(-c2ccc3ncc(Nc4ccnc(N5CCOCC5)c4)n3n2)cc1` is reported as no less than 100 µM.
The IC50 of `Cc1cc(=O)oc2cc(NC(=O)[C@H](CCC(=O)O)NC(=O)[C@H](CC(C)C)NC(=O)[C@H](CC(C)C)NC(=O)OCc3ccccc3)ccc12` is reported as no less than 100 µM.
For `Cc1[nH]c2ccc(C(=O)N3CCN(c4ccccc4Cl)CC3)cc2c1C`, the IC50 was no less than 100 µM.
The IC50 of `CC(C)(O)c1cc(CC2(NCc3cnc4ccccc4c3)COC2)no1` is reported as no less than 100 µM.
The IC50 of `COc1ccccc1C(=O)Nc1ccc2ccccc2n1` is reported as no less than 100 µM.
`Cc1ccc(Nc2nc(N3CCOCC3)nc3nccnc23)c(C)c1` has an IC50 of no less than 100 µM.
`OC(COc1cccc2[nH]ccc12)Cn1cc(-n2cccc2)cn1` (centres unmarked) gave an IC50 of no less than 100 µM.
The IC50 of `COc1cc(CN2CCC(C)(C#N)CC2)ccc1OCC(O)CN1CCOCC1` (centres unmarked) is reported as no less than 100 µM.
`CCOc1ccccc1N1CCN([S+](=O)([O-])c2cc(Cl)ccc2Cl)CC1` has an IC50 of no less than 100 µM.
`COc1cc(O)ccc1OCCNCC(O)COc1cccc2[nH]c3ccccc3c12` (centres unmarked) gave an IC50 of no less than 100 µM.
`CN(C)c1ccc(Nc2ncnc3sc4c(c23)CCCC4)cc1` has an IC50 of no less than 100 µM.
For `O=C1COc2ccc(-c3ccoc3)nc2CN1`, the IC50 was no less than 100 µM.
`COc1cc(CNCC2CCOCC2)ccc1OCC(O)CN(C)C1CCCCC1` (centres unmarked) has an IC50 of no less than 100 µM.

Sample 3 — read-out: enzyme activity; mode: inhibitor; tested at: 0.5 µM; reference: control
Target: Ribosomal protein S6 kinase alpha-1 (RPS6KA1, Homo sapiens, UniProt Q15418)
Sequence of UniProt Q15418 (whole entry, looked up): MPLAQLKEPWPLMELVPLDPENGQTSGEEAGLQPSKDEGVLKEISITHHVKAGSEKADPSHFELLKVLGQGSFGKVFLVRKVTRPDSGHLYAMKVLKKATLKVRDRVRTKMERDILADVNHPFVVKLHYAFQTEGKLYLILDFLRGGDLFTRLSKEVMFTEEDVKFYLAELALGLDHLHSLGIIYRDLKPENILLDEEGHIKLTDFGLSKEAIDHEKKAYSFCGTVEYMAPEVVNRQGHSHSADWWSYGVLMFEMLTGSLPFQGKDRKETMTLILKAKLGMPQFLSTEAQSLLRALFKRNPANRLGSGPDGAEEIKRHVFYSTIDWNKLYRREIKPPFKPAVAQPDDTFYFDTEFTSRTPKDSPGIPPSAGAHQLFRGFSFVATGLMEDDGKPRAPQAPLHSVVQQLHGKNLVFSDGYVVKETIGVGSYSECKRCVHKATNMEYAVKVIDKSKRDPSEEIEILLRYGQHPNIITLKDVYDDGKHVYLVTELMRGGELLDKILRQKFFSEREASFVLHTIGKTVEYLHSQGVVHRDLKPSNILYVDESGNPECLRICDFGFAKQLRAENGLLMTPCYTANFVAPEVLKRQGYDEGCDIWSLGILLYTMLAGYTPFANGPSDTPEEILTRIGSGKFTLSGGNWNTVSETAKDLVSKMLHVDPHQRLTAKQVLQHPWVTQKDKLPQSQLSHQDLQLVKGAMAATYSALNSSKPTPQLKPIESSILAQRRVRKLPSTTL
For `CC(C)c1nn(-c2c(Cl)cccc2Cl)c2nc(Cc3ccc(OCCO)cc3)[nH]c(=O)c12`, the remaining activity was 91.3%.
`COc1ccc(Cl)cc1NC(=O)Nc1cc(C)nc2ccccc12` has a remaining activity of 77.8%.
For `Cc1ccc(NC(=O)c2ccc(CN3CCN(C)CC3)cc2)cc1Nc1nccc(-c2cccnc2)n1`, the remaining activity was 101%.
With `COc1cc2ncc(-c3ccccc3)nc2cc1OC` the remaining activity was 88.4%.
`Cn1cnc2cc3c(Nc4cccc(Br)c4)ncnc3cc21` gave a remaining activity of 103%.
The remaining activity of `Cn1cc(/C=C2\C(=O)Nc3ccc(S(N)(=O)=O)cc32)c2ccccc21` is reported as 12.7%.
`O=c1cc(N2CCOCC2)oc2c1ccc1ccccc12` gave a remaining activity of 92%.
`COc1cc2ncnc(N3CCN(C(=O)Nc4ccc(Oc5ccccc5)cc4)CC3)c2cc1OC` has a remaining activity of 82%.
With `CCOc1cc2ncnc(Nc3cccc(Br)c3)c2cc1OCC` the remaining activity was 82.8%.
`O=C(Nc1ccc(Cl)cc1)c1ccccc1NCc1ccncc1` has a remaining activity of 92%.
For `O=C1NC(=O)/C(=C/c2ccc3nccnc3c2)S1`, the remaining activity was 80.7%.
With `CN(C)CCCn1cc(C2=C(c3c[nH]c4ccccc34)C(=O)NC2=O)c2ccccc21` the remaining activity was 4.67%.
`Nc1[nH]nc2nnc(-c3c(-c4ccccc4)nn4ccccc34)cc12` has a remaining activity of 95.1%.
With `CC(C)[C@H](CO)Nc1nc(Nc2cccc(Cl)c2)c2ncn(C(C)C)c2n1` the remaining activity was 77.3%.
`COc1ccc(-c2cnc3c(-c4ccsc4)cnn3c2)cc1` has a remaining activity of 85.7%.
The remaining activity of `COc1cc2ncnc(Nc3ccc(OCc4ccccc4)cc3)c2cc1OC` is reported as 90.2%.
`CS(=O)(=O)CCNCc1ccc(-c2ccc3ncnc(Nc4ccc(OCc5cccc(F)c5)c(Cl)c4)c3c2)o1` gave a remaining activity of 105%.
`CC(=O)O/N=C1/C(c2c(O)[nH]c3cc(Br)ccc23)=Nc2ccccc21` has a remaining activity of 69%.
With `Cc1nc(Nc2ncc(C(=O)Nc3c(C)cccc3Cl)s2)cc(N2CCN(CCO)CC2)n1` the remaining activity was 96.2%.
`CCN1/C(=C/C(C)=O)Sc2ccc(OC)cc21` gave a remaining activity of 94%.
`CCC(=O)Nc1ccc2ncnc(Nc3cccc(Br)c3)c2c1` has a remaining activity of 88.7%.

Sample 4 — read-out: cell-free assay; technique: competition with immobilised ligand; tested at: 1 µM
SMILES: NS(=O)(=O)c1cc(NC(=O)Cc2ccccc2)ccc1Oc1cccc(Cl)c1
For Proto-oncogene tyrosine-protein kinase receptor Ret (RET, Homo sapiens, UniProt P07949): remaining binding read 100%.
It gave 100% for remaining binding (Serine/threonine-protein kinase PAK 6 (PAK6, Homo sapiens, UniProt Q9NQU5)).
For 3-phosphoinositide-dependent protein kinase 1 (PDPK1, Homo sapiens, UniProt O15530): remaining binding read 95%.
For Serine/threonine-protein kinase pim-2 (PIM2, Homo sapiens, UniProt Q9P1W9): remaining binding read 100%.
The remaining binding was 91% (Interleukin-1 receptor-associated kinase 4 (IRAK4, Homo sapiens, UniProt Q9NWZ3)).
Receptor tyrosine-protein kinase erbB-2 (ERBB2, Homo sapiens, UniProt P04626) — remaining binding: 87%.
For Tyrosine-protein kinase ITK/TSK (ITK, Homo sapiens, UniProt Q08881): remaining binding read 87%.
For Serine/threonine-protein kinase TAO2 (TAOK2, Homo sapiens, UniProt Q9UL54): remaining binding read 76%.
Serine/threonine-protein kinase Nek1 (NEK1, Homo sapiens, UniProt Q96PY6) — remaining binding: 93%.
It gave 91% for remaining binding (NUAK family SNF1-like kinase 2 (NUAK2, Homo sapiens, UniProt Q9H093)).
Serine/threonine-protein kinase D2 (PRKD2, Homo sapiens, UniProt Q9BZL6) — remaining binding: 85%.
The remaining binding was 76% (Tyrosine-protein kinase BTK (BTK, Homo sapiens, UniProt Q06187)).
For Microtubule-associated serine/threonine-protein kinase 1 (MAST1, Homo sapiens, UniProt Q9Y2H9): remaining binding read 85%.
The remaining binding was 74% (Cyclin-dependent kinase 4, with cyclin D1 (CDK4, Homo sapiens, UniProt P11802)).
It gave 75% for remaining binding (Ribosomal protein S6 kinase alpha-1, C-terminal kinase domain (RPS6KA1, Homo sapiens, UniProt Q15418)).
Tyrosine-protein kinase receptor Tie-1 (TIE1, Homo sapiens, UniProt P35590) — remaining binding: 100%.
It gave 84% for remaining binding (Epidermal growth factor receptor (EGFR, Homo sapiens, UniProt P00533)).
For Mitogen-activated protein kinase 10 (MAPK10, Homo sapiens, UniProt P53779): remaining binding read 89%.
It gave 83% for remaining binding (Mitogen-activated protein kinase 7 (MAPK7, Homo sapiens, UniProt Q13164)).
Serine/threonine-protein kinase PAK 4 (PAK4, Homo sapiens, UniProt O96013) — remaining binding: 87%.
Phosphatidylinositol 4,5-bisphosphate 3-kinase catalytic subunit alpha isoform (PIK3CA, Homo sapiens, UniProt P42336, C420R) — remaining binding: 62%.
For Tyrosine-protein kinase receptor UFO (AXL, Homo sapiens, UniProt P30530): remaining binding read 93%.
Mitogen-activated protein kinase kinase kinase 9 (MAP3K9, Homo sapiens, UniProt P80192) — remaining binding: 100%.
Serine/threonine-protein kinase NIM1 (NIM1K, Homo sapiens, UniProt Q8IY84) — remaining binding: 62%.
It gave 74% for remaining binding (Serine/threonine-protein kinase ULK3 (ULK3, Homo sapiens, UniProt Q6PHR2)).

Some of these lines once more (sample 2):
`COc1ncc(-c2nccc3c(=O)cc(N(C)c4ccccc4)oc23)cn1` has an IC50 of no less than 100 µM.
The IC50 of `Fc1ccc(-c2ccc3ncc(Nc4ccnc(N5CCOCC5)c4)n3n2)cc1` is reported as no less than 100 µM.
The IC50 of `Cc1cc(=O)oc2cc(NC(=O)[C@H](CCC(=O)O)NC(=O)[C@H](CC(C)C)NC(=O)[C@H](CC(C)C)NC(=O)OCc3ccccc3)ccc12` is reported as no less than 100 µM.
For `Cc1[nH]c2ccc(C(=O)N3CCN(c4ccccc4Cl)CC3)cc2c1C`, the IC50 was no less than 100 µM.
The IC50 of `CC(C)(O)c1cc(CC2(NCc3cnc4ccccc4c3)COC2)no1` is reported as no less than 100 µM.
The IC50 of `COc1ccccc1C(=O)Nc1ccc2ccccc2n1` is reported as no less than 100 µM.
`Cc1ccc(Nc2nc(N3CCOCC3)nc3nccnc23)c(C)c1` has an IC50 of no less than 100 µM.
`OC(COc1cccc2[nH]ccc12)Cn1cc(-n2cccc2)cn1` (centres unmarked) gave an IC50 of no less than 100 µM.
The IC50 of `COc1cc(CN2CCC(C)(C#N)CC2)ccc1OCC(O)CN1CCOCC1` (centres unmarked) is reported as no less than 100 µM.
`CCOc1ccccc1N1CCN([S+](=O)([O-])c2cc(Cl)ccc2Cl)CC1` has an IC50 of no less than 100 µM.
